Published values of several laboratories.
Compare with care: the assays were run in different laboratories.

COc1cc2nccc(Oc3ccc(NC(=O)c4cc5c(n(-c6ccccc6)c4=O)CCCC5=O)nc3)c2cc1OC — TEAEs, drug-related, patients with (patients with relapsed/refractory AML; oral, 10 mg once daily): 28.6%
FC(F)(F)c1ccc(CNc2ccc(Cc3c[nH]c4ncc(Cl)cc34)cn2)cn1 — patients with treatment-related adverse event (refers to: gastroesophageal reflux disease; advanced solid tumour patients; oral, 1000 mg/day, all grades, all cohorts): 4%
CNC(=O)c1ccc(-c2cnc3ncc(Cc4ccc5ncccc5c4)n3n2)cc1F — patients with adverse event (refers to: Vomiting, all grades; gastric cancer patients; oral, 600 mg twice daily, expansion cohort, any causality): 33%
CC(C)C[C@H](NC(=O)[C@@H](Cc1c[nH]c2ccccc12)NC(=O)[C@H](Cc1ccc(O)cc1)NC(=O)[C@H](CO)NC(=O)[C@H](Cc1c[nH]c2ccccc12)NC(=O)[C@H](Cc1c[nH]cn1)NC(=O)[C@@H]1CCC(=O)N1)C(=O)N[C@@H](CCCNC(=N)N)C(=O)N1CCC[C@H]1C(=O)NCC(N)=O — patients with adverse events (Chinese CPP children, overall; intramuscular, 22.5 mg, 12 months, day 1, month 6): 89.4%
Cc1cc(NC2CCN(C(=O)OC3CCN(C(=O)/C=C/CN(C)C)C3)CC2)n2ncc(C(C)C)c2n1 (stereo not drawn) — patients with TEAE (CTCAE v4.0, refers to: Constipation; patients with advanced solid tumours; oral, dose not given, TIW, grade 3 or higher): 0%
O=C(NC[C@H]1CN(c2ccc(N3CCOCC3=O)cc2)C(=O)O1)c1ccc(Cl)s1 — patients below AUC range (Phoenix NLME; atrial fibrillation patients, plasma; oral, dose not given): 48%
CCOc1c([C@H](C)n2nc(C)c3c(N)ncnc32)cc(Cl)c(F)c1[C@@H]1CNC(=O)C1 — patients (refers to: QRS ≤100 ms; previously treated B-cell malignancy; oral, 30 mg once daily, baseline below thresholds): 100%
C=CCN1CC(=O)N2[C@@H](Cc3ccc(O)cc3F)C(=O)N(Cc3cccc(N4CC(N5CCN(CC)CC5)C4)n3)C[C@@H]2N1C(=O)NCc1ccccc1 — patients with ALT increased (advanced solid tumour patients; 80 mg twice daily, treatment-related, any grade): 0%
COc1cc(Nc2ncc3c(n2)-c2ccc(Cl)cc2C(c2c(F)cccc2OC)=NC3)ccc1C(=O)O — patients with adverse event (refers to: increased ALT, grade 2; cancer patients, phase 1/2; oral, dose not given, with: pembrolizumab): 4%
C=CC(=O)Nc1cc(Nc2nccc(-c3cn(C)c4ccccc34)n2)c(OC)cc1N(C)CCN(C)C — patients with adverse events (refers to: treatment-related grade ≥3 Vomiting; EGFR-mutant MET-altered NSCLC; oral, dose not given, all): 4%
C=CC[C@@H]1/C=C(\C)C[C@H](C)C[C@H](OC)[C@H]2O[C@@](O)(C(=O)C(=O)N3CCCC[C@H]3C(=O)O[C@H](/C(C)=C/[C@@H]3CC[C@@H](O)[C@H](OC)C3)[C@H](C)[C@@H](O)CC1=O)[C@H](C)C[C@@H]2OC — patients with supratherapeutic C0 (kidney transplant recipients, CYP3A5*3/*3 poor metabolizers, whole blood; oral, dose not given): 23%
NC(=O)N1c2ccccc2C=Cc2ccccc21 — patients with back pain (male patients; oral, dose not given, treatment-related adverse events): 7%
CC(=O)O[C@H]1C(=O)[C@@]2(C)[C@H]([C@H](OC(=O)c3ccccc3)[C@]3(O)C[C@H](OC(=O)[C@H](O)[C@@H](NC(=O)c4ccccc4)c4ccccc4)C(C)=C1C3(C)C)[C@]1(OC(C)=O)CO[C@@H]1C[C@@H]2O — patients with ALT increase (patients with advanced solid tumours; intravenous, dose not given, all grades, related to treatment): 19%
Cc1cc(Nc2ccc(S(F)(F)(F)(F)F)cc2)n2nc(C(C)(F)F)nc2n1 — patients with eye disorders (Plasmodium vivax malaria patients; oral, 800 mg): 0%
Cc1cc(-c2nnc(N)nc2-c2ccc(F)cc2)cc(Cl)n1 — patients with immune-mediated AE (refers to: Colitis; IO-naive mCRPC patients, male; oral, dose not given, treatment-related, grade 1): 0%
COCCOc1cnc2ccn([C@H](C)c3nnc4c(F)cc(-c5cnn(C)c5)cn34)c(=O)c2c1 — patients with QTcF increase (cancer patients; oral, dose not given, increase from baseline >30 ms): 35.1%
COc1ccc([C@@H](O)c2cc(-c3ncnc4cc(N5CCOCC5)ccc34)c(F)cc2Cl)nn1 — patients with investigation abnormalities (locally advanced rectal cancer patients; 50 mg, drug-related adverse events, with: capecitabine and radiotherapy): 0%
C[C@@H](Nc1cc(F)cc(F)c1)c1cc(C(=O)N(C)C)cc2c(=O)cc(N3CCOCC3)oc12 — patients discontinuing for AE (refers to: Syncope; advanced solid tumour patients; oral, dose not given, dose finding): 0%
CNC(=O)c1cc(Oc2ccc(NC(=O)Nc3cc(C(C)(C)C)nn3-c3ccc4ncccc4c3)c(F)c2)ccn1 — patients with nervous system disorders (patients; oral, dose not given, cycles 1 and 2, High AUC subgroup): 67%
O=C(Nc1nc2cccc(-c3ccc(CN4CCS(=O)(=O)CC4)cc3)n2n1)C1CC1 — patients with gastrointestinal pain (rheumatoid arthritis patients; oral, 100 mg twice daily, 4 weeks, regardless of relatedness): 0%
Cc1ccc(C(=O)N(CCCN)C(c2nc3snc(C)c3c(=O)n2Cc2ccccc2)C(C)C)cc1 (stereo not drawn) — patients with grade ≥3 adverse events (patients; intravenous, 16 mg/day): 44%

Some of these lines once more:
CCOc1c([C@H](C)n2nc(C)c3c(N)ncnc32)cc(Cl)c(F)c1[C@@H]1CNC(=O)C1 — patients (refers to: QRS ≤100 ms; previously treated B-cell malignancy; oral, 30 mg once daily, baseline below thresholds): 100%
C=CCN1CC(=O)N2[C@@H](Cc3ccc(O)cc3F)C(=O)N(Cc3cccc(N4CC(N5CCN(CC)CC5)C4)n3)C[C@@H]2N1C(=O)NCc1ccccc1 — patients with ALT increased (advanced solid tumour patients; 80 mg twice daily, treatment-related, any grade): 0%
